Experimental data of several laboratories.
Every numbered part comes from another study and shows a few of its results, in no order. Positions count from the first letter of the parent shown.
UniProt Q96B02, sequence (whole entry, looked up): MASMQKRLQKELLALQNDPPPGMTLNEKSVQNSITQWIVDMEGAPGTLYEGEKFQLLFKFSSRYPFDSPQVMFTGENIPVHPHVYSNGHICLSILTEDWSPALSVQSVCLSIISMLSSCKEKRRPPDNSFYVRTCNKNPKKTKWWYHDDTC
UniProt P49459, sequence (whole entry, looked up): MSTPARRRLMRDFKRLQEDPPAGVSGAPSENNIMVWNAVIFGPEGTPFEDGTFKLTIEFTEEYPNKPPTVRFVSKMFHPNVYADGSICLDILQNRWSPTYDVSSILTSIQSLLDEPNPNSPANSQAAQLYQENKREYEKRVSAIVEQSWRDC
UniProt P61077, sequence (whole entry, looked up): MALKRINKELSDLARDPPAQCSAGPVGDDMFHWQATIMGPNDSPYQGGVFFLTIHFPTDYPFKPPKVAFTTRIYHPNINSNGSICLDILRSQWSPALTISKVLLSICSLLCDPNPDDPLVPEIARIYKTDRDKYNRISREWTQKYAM

Block 1 — technique: RNA Bind-n-Seq; molecule type: RNA; medium: in vitro; tested at: 20 nM; notes: 6-mer, flanks averaged, single round; with: 150 mM KCl; baseline: input library; reading: higher = stronger binding; quantity: 6-mer enrichment (R)
Target: TAR DNA-binding protein 43, full length, His tag (TARDBP, Homo sapiens, UniProt Q13148, residues 1-414)
Strand = UUCUUG; result = 0.64
Strand = CGUUUC; result = 0.578
Strand = GAGGUC; result = 1.33
Strand = AUGAUG; result = 0.914
Strand = GGAAUU; result = 0.872
Strand = GAUGGC; result = 1.38
Strand = UACGCU; result = 0.599
Strand = GGUCCA; result = 0.96

Block 2 — target: CCNA1, cyclin fold, Cln2 fusion (human); technique: yeast growth competition, sequencing; medium: yeast; notes: strong parent motif; baseline: not given; reading: higher = stronger binding; quantity: normalised enrichment score
Starting sequence: viral docking peptide; YKVKRRLVFGADD; partner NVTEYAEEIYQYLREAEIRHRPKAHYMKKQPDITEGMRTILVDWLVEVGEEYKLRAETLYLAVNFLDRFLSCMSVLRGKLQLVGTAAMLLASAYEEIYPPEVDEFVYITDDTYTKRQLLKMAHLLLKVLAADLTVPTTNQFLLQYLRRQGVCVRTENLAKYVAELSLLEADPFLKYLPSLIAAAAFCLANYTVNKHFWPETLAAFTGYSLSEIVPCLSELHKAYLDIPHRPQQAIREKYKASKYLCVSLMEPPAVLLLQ
Variant = YIVKRRLVFGADD [K2I]; result = 1.17
Variant = YKVKRRLVFGDDD [A11D]; result = 1.49
Variant = YKVKRELVFGADD [R6E]; result = 0.836
Variant = YKVKRGLVFGADD [R6G]; result = 0.186
Variant = YAVKRRLVFGADD [K2A]; result = 0.803
Variant = YKVKRRLVFFADD [G10F]; result = 0.611
Variant = YKVKRRLHFGADD [V8H]; result = 1.27
Variant = YKVKRRLSFGADD [V8S]; result = 1.77
Variant = YKVKRRSVFGADD [L7S]; result = 0.633
Variant = YKVKRRLVEGADD [F9E]; result = 0.132
Variant = YKVKRRLPFGADD [V8P]; result = 0.423
Variant = YKVKRRLVFGAAD [D12A]; result = 1.01
Variant = YKNKRRLVFGADD [V3N]; result = 0.0659
Variant = YKVKARAVFGADD [R5A L7A]; result = 0.292
Variant = YKVKRHLVFGADD [R6H]; result = 0.536
Variant = YKVKNRLVFGADD [R5N]; result = -0.363
Variant = YKVKRRLVFYADD [G10Y]; result = 1.11
Variant = YKVKRRLVFEADD [G10E]; result = 1.44
Variant = YKVKRRLVFVADD [G10V]; result = 1.09
Variant = YKVKRRQVFGADD [L7Q]; result = 0.0412
Variant = YKVKRRLVFGAHD [D12H]; result = 0.989
Variant = YKVKRRLVFGAYD [D12Y]; result = 0.932
Variant = YKVKRRLVWGADD [F9W]; result = 1.05
Variant = YKVKRRLVFGSDD [A11S]; result = 1.59
Variant = YKVKRRLVFGQDD [A11Q]; result = 0.86

Block 3 — read-out: peptide-MHC binding; molecule type: peptide; tested at: concentration not given; quantity: binding
Target: HLA class I histocompatibility antigen, A alpha chain, allele A*25:01 (Homo sapiens, UniProt P04439)
Sequence = TVYGLGADV; result = inactive
Sequence = LELAEITAE; result = inactive
Sequence = MTFPVSLEY; result = active
Sequence = YRATYSMAL; result = inactive
Sequence = GIVSSMHYK; result = inactive
Sequence = ERYPGGVSL; result = inactive
Sequence = RGYVWTNGY; result = inactive
Sequence = YSGNIVHRY; result = inactive

Block 4 — Substance: RNF141 RING domain (UniProt Q8WVD5); technique: yeast two-hybrid; medium: yeast; notes: mostly zero background; baseline: not given; reading: higher = stronger interaction; quantity: lacZ reporter activity
UniProt Q8WVD5, sequence (whole entry, looked up): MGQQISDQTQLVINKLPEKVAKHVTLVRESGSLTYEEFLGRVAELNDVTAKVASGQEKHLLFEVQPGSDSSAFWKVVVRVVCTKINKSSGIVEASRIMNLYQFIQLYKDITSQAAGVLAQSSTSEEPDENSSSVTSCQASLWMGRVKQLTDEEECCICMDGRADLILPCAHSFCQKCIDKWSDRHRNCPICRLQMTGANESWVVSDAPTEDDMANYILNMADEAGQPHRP
target = UBE2A UBC core domain (UniProt P49459); result = 0
target = UBE2W UBC core domain (UniProt Q96B02); result = 0
target = UBE2D3 UBC core domain (UniProt P61077); result = 0

Block 5 — technique: aptamer microarray, sandwich; molecule type: DNA with 2'F-ANA; medium: in vitro; tested at: 200 nM; with: Cy3 exosite-II aptamer, 400 nM; reading: higher = stronger binding; quantity: mean fluorescence intensity; strand: GGTTGGTGTGGTTGG
Target: Prothrombin, mature alpha-thrombin (F2, Homo sapiens, UniProt P00734)
Notes: whole 15-mer aptamer, many near background
Modification = 2'F-ANA at 1 2 3 4 5 6 10 12 14 15; result = 47 a.u.
Modification = 2'F-ANA at 1 2 3 4 8 11 14; result = 70.4 a.u.
Modification = 2'F-ANA at 1 2 11 12; result = 363 a.u.
Modification = 2'F-ANA at 1 3 4 5 6 9 13; result = 141 a.u.
Modification = 2'F-ANA at 2 4 5 7 10 12 14 15; result = 47.4 a.u.
Modification = 2'F-ANA at 4 7 9 12 15; result = 506 a.u.
Modification = 2'F-ANA at 5 9 10 12 13 15; result = 51 a.u.
Modification = 2'F-ANA at 2 6 7 12; result = 719 a.u.

Excerpt of the above (block 1):
Strand = GAGGUC; result = 1.33
Strand = AUGAUG; result = 0.914
Strand = GGAAUU; result = 0.872
Strand = GAUGGC; result = 1.38
Strand = UACGCU; result = 0.599
